Measured values pooled from the literature.
Protocols differ between the studies behind these lines. ± gives the spread as reported.
UniProt P78362, sequence (whole entry, looked up): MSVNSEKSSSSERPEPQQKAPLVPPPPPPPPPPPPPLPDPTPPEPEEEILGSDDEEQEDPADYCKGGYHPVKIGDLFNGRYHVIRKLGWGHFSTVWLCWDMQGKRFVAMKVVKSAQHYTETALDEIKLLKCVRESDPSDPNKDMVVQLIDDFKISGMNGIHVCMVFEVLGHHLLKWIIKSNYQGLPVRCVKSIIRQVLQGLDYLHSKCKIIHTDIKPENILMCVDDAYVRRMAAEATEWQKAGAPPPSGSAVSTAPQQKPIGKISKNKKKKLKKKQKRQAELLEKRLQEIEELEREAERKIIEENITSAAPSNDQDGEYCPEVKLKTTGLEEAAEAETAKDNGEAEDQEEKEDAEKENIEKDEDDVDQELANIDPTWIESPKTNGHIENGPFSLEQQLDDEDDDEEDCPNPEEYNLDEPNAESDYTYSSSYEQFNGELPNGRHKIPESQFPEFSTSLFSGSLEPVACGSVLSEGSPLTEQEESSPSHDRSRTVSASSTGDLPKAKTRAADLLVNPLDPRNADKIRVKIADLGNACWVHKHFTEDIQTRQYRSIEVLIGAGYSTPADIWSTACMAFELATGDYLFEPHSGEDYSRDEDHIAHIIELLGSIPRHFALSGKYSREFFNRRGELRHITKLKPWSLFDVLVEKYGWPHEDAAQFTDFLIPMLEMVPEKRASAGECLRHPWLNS
UniProt O15111, sequence (whole entry, looked up): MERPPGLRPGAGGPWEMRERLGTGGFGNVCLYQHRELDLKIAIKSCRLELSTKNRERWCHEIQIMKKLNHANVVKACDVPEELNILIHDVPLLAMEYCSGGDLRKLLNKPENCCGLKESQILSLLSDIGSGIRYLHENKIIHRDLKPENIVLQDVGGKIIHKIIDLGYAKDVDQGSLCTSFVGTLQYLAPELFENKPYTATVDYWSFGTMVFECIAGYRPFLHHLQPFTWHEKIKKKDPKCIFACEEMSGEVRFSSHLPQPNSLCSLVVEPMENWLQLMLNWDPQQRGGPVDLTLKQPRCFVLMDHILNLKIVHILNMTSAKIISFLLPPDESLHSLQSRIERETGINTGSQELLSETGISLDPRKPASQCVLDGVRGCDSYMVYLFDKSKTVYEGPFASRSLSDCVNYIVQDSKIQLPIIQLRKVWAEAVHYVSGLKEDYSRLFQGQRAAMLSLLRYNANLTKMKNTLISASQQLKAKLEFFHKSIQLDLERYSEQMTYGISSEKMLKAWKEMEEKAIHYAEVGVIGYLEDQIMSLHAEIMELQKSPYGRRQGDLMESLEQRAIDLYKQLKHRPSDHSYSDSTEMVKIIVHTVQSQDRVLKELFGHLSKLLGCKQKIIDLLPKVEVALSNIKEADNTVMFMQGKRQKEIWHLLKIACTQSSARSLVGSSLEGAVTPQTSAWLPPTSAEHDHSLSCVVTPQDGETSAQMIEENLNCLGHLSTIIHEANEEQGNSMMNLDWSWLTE
UniProt Q9UBS5, sequence (whole entry, looked up): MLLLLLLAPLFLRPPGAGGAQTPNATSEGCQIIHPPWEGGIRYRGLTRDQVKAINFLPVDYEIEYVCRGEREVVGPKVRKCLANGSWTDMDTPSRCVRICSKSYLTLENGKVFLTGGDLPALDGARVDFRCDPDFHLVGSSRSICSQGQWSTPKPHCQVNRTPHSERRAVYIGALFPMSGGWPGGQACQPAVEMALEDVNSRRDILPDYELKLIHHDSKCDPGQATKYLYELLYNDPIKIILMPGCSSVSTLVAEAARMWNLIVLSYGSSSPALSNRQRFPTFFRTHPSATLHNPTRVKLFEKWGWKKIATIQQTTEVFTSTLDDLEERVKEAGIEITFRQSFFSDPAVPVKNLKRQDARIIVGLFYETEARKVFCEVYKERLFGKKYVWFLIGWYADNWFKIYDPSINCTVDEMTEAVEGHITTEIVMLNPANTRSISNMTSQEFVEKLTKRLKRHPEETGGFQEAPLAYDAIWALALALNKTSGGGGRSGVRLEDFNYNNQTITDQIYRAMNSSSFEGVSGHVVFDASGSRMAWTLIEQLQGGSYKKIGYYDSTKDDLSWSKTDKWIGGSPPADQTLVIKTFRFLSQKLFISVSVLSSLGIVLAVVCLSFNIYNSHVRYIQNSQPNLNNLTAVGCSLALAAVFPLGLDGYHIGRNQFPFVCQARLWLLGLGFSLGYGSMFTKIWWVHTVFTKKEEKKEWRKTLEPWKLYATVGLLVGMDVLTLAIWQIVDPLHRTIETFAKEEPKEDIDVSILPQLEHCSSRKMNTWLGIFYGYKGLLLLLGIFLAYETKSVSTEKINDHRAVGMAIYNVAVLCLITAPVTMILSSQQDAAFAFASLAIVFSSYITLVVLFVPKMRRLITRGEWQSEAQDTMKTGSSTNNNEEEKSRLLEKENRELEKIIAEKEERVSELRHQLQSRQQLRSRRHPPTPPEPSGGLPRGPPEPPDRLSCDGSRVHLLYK
UniProt P07437, sequence (whole entry, looked up): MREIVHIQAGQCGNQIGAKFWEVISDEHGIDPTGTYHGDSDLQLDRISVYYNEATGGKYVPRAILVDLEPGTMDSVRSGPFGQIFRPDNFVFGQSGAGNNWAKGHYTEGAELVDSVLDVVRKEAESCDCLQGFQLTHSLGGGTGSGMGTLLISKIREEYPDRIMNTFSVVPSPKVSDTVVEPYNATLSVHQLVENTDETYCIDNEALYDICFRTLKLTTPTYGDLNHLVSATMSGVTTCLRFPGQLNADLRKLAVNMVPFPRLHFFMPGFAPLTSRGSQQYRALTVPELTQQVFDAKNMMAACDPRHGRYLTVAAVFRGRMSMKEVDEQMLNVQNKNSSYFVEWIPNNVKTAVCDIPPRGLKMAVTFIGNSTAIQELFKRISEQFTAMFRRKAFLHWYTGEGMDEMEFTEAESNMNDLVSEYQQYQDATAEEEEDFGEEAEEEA
UniProt C7C422, sequence (whole entry, looked up): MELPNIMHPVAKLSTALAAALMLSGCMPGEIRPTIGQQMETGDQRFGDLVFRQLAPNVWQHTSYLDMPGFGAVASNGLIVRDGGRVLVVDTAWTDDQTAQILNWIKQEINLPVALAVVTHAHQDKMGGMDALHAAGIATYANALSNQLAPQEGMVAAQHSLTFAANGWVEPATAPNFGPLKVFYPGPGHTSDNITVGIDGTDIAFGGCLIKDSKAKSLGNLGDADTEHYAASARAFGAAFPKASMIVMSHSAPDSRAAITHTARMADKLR
UniProt P11229, sequence (whole entry, looked up): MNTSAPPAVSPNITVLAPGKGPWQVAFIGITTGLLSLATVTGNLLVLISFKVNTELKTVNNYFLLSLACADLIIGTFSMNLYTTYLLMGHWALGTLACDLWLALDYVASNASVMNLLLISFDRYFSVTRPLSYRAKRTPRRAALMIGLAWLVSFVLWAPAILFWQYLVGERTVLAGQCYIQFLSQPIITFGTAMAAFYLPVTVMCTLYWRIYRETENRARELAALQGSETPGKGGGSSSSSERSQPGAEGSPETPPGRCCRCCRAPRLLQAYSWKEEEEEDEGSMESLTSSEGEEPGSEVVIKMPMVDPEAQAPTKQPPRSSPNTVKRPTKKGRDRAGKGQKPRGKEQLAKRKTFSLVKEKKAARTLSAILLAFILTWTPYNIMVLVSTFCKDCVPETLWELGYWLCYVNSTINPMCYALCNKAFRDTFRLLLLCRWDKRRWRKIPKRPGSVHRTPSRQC
UniProt Q8IW41, sequence (whole entry, looked up): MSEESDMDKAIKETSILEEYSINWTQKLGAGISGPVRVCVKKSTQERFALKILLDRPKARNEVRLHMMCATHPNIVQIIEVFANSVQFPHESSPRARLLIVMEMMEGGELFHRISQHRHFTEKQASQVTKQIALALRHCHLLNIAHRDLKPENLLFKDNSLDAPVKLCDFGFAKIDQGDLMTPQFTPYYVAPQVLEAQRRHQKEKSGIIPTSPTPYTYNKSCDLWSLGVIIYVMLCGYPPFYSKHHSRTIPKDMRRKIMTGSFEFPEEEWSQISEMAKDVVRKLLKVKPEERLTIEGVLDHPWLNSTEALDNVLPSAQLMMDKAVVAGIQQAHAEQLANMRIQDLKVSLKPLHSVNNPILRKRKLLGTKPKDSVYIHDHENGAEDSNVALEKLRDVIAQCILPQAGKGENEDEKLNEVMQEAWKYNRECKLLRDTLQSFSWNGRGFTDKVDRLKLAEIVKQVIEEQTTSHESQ

The activation of CN1CCN(c2cc(-c3ccncc3)c(-c3ccc4ccccc4c3)nn2)CC1 is reported as 0.2% (CHRM1 (Homo sapiens, UniProt P11229); agonist, FLIPR; 12.5 µM).
[2H]c1c([2H])c([C@]2([2H])CCCN2C(=O)C(C)(C)Oc2ccc3cn[nH]c3c2)c([2H])c([2H])c1C([2H])([2H])[2H] gave a remaining binding of 86% (CIT (Homo sapiens, UniProt O14578); KINOMEscan; 1 µM; reference: DMSO control).
For O=C(Nc1cnccc1Cl)N1CCN(Cc2ccc3c(c2)OC(F)(F)O3)CC1, the inhibition was -3% (CHUK (Homo sapiens, UniProt O15111); enzyme activity, inhibitor; 50 µM).
C[C@H]1CN(c2n[nH]c3nc(N[C@H]4CC[C@H](NS(=O)(=O)CCC(F)(F)F)CC4)ncc23)CCO1 has a relative abundance of 1.19 (DYNC1H1 (Homo sapiens, UniProt Q14204); inhibitor, Kinobeads competition profiling; 20 µM; reference: vehicle).
Under “mean protein ratio”, O=C(c1ccc(Cl)cc1)N1CCN2C(=O)N(OC(=O)N3CCOc4ccccc43)C(=O)C2C1 (stereo not drawn) is recorded as 1.07 (TUBB (Homo sapiens, UniProt P07437); MS-based ABPP; SW-620 conditioned medium; 10 µM; reference: compound over DMSO, lower = more inhibition).
For CN(C(=O)n1cnc(-c2ccc[n+]([O-])c2)c1)C1CCCCC1, the inhibition was 5% (MAPKAPK5 (Homo sapiens, UniProt Q8IW41); kinase activity, inhibitor; 10 µM, added: PRAK substrate peptide).
With O=C(Cc1cccs1)N[C@@H]1C(=O)N2C(C(=O)O)=C(/C=C/c3ccc([N+](=O)[O-])cc3[N+](=O)[O-])CS[C@H]12 the kcat was 12.6 ± 0.7 s⁻¹ (blaNDM-1 (Klebsiella pneumoniae, UniProt C7C422); substrate, steady-state kinetics).
O=C(Nc1cccnn1)N1CCC(=Cc2cccc(Oc3ccc(C(F)(F)F)cn3)c2)CC1 — result for “inhibition of binding”: 12% (GABBR1 (Homo sapiens, UniProt Q9UBS5); radioligand binding; 10 µM, added: [3H]CGP-54626).
COc1ccc(N2C(=O)N(c3c(C)cccc3Cl)Cc3cnc(Nc4ccc(C5CCN(C)CC5)cc4OC)nc32)nc1 has an inhibition of 2.38% (SRPK2 (Homo sapiens, UniProt P78362); kinase activity; 0.5 µM).

Repeated from above:
COc1ccc(N2C(=O)N(c3c(C)cccc3Cl)Cc3cnc(Nc4ccc(C5CCN(C)CC5)cc4OC)nc32)nc1 has an inhibition of 2.38% (SRPK2 (Homo sapiens, UniProt P78362); kinase activity; 0.5 µM).
